Results from different studies.
± marks the error that the study gave.

Structure (SMILES) | test | system | conditions | how to read | tumour growth inhibition
Cl.O=C(c1cc(Cc2n[nH]c(=O)c3ccccc23)ccc1F)N1CC(CNC2CC2)C1 | – | BALB/c nude mouse, MX1 xenograft | oral, 25 mg/kg once daily, 23 days | – | 62.9%
C[C@@H]1COCCN1c1cc([C@]2(O)C[C@H]3CC[C@@H](C2)O3)c2cnn(-c3cc[nH]n3)c2n1 | – | Granta-519 xenograft, mouse | 30 mg/kg QD x3, day 20 | – | 83.8 ± 2.4%
COCc1cc(C(=O)Nc2cc([C@H]3CC[C@@H](OC(=O)NC(C)C)C3)[nH]n2)n(C)n1 | – | MCF7 xenograft, NSG mouse | oral twice daily, low dose | – | 52%
C=CC(=O)N1CCC[C@@H](n2nc(-c3ccc(Oc4ccccc4)cc3)c3c(N)ncnc32)C1 | – | Rec-1 mantle cell lymphoma xenograft, mouse | 30 mg/kg twice daily | relative to: vehicle | 85%
C[C@]12CC[C@H](n3ccnc3)CC1=CC[C@@H]1[C@@H]2CC[C@]2(C)C(n3cnc4ccccc43)=CC[C@@H]12.Cl | – | mouse CWR22Rv1 xenograft | oral, 5 mg/kg once daily, 16 days, 5 days per week | – | 74.2%
O=C1CC[C@H](N2Cc3cc(N4CCN(CC5CCN(c6ccc([C@@H]7c8ccc(O)cc8CC[C@@H]7c7ccccc7)cc6)CC5)CC4)ccc3C2=O)C(=O)N1 | – | mouse MCF7 orthotopic xenograft | oral, 3 mg/kg once daily, 28 days | – | 85%
C=CC(=O)Nc1cc(Nc2ncc(C(=O)OC(C)C)c(-c3cn(C)c4ccccc34)n2)c(OC)cc1N(C)CCN(C)C | – | mouse NCI-H2073 xenograft | oral, 30 mg/kg once daily, day 14 | – | 165%
CC(=O)O[C@@]12CO[C@@H]1C[C@H](O)[C@@]1(C)C(=O)[C@H](O)C3=C(C)[C@@H](OC(=O)[C@H](O)[C@@H](NC(=O)OC(C)(C)C)c4ccccc4)C[C@@](O)([C@@H](OC(=O)c4ccccc4)[C@H]21)C3(C)C | – | mouse, CWR22Rv1 CRPC xenograft | ip, 5 mg/kg, 16 days, 3 times per week | – | 56.9%
CC(=O)c1c(C)c2cnc(Nc3ccc(N4CCNCC4)cn3)nc2n(C2CCCC2)c1=O | – | OVCAR-3, mouse xenograft | oral, above 50 mg/kg, not statistically significant | – | 22%
C=CC(=O)Nc1cc(Nc2nccc(Nc3cc(Cl)c(F)cc3C(C)(C)O)n2)c(OC)cc1N1CC[C@@H](N(C)C)C1 | – | NCI-H2073 parental, EGFR wild type, BALB/c nude mouse, NCI-H2073 xenograft | 12.5 mg/kg twice daily, 21 days | – | 65.1%
CCCCc1nc2cc(/C=C/C(=O)NO)ccc2n1CCN(CC)CC | – | mouse, MOLM-13 subcutaneous xenograft | 75 mg/kg every other day, day 7 | – | 25%
CC(C)c1ccccc1[C@@H]1CCCN1C1CC2(CCN(c3ccc(C(=O)NS(=O)(=O)c4ccc(NC[C@H]5CC[C@](C)(O)CC5)c([N+](=O)[O-])c4)c(Oc4cnc5[nH]ccc5c4)c3)CC2)C1 | – | mouse RS4;11 xenograft | oral, 5 mg/kg once daily, day 14 | – | 98%
COc1cccc2c1C(=O)c1c(O)c3c(c(O)c1C2=O)C[C@@](O)(C(=O)CO)C[C@@H]3O[C@H]1C[C@H](N)[C@H](O)[C@H](C)O1 | – | mouse, A549 subcutaneous xenograft | intravenous, 5 mg/kg, weekly for four weeks, added: PhAc-ALGP-prodrug 154 mg/kg | – | 68%
Nc1nnc(-c2ccccc2O)cc1N1CCN(Cc2ccc(OCCOCCNc3cccc4c3C(=O)N(C3CCC(=O)NC3=O)C4=O)c(F)c2)CC1 (centres unmarked) | – | nude mouse, NCI-H2126 xenograft | intraperitoneal, 12.5 mg/kg daily | – | 44%
COc1ccc(F)cc1C(=O)NCc1ccc(-c2nn([C@@H](C)C(F)(F)F)c(N)c2C(N)=O)cc1 | – | OCI-Ly10, mouse xenograft | oral, 50 mg/kg twice daily, day 28, 672 h | – | 95%
Cc1ncsc1-c1ccc(CNC(=O)[C@@H]2C[C@@H](O)CN2C(=O)[C@@H](NC(=O)CCCCCCCCCC(=O)N2CCN(CC[C@H](NC(=O)C3(N)CCN(c4ncnc5[nH]ccc45)CC3)c3ccc(Cl)cc3)CC2)C(C)(C)C)cc1 | – | nude mouse, MDA-MB-468 xenograft | 75 mg/kg | relative to: vehicle | > 80%
COc1ccc(CN2C3CC2CN(c2ccc(-c4cc(OCC(C)(C)O)cn5ncc(C#N)c45)cn2)C3)cn1 | xenograft | Ba/F3 KIF5B-RET G810C, SHO mouse CDX | oral, 25 mg/kg once daily | – | no effect

For quick reference, copied from above:
Structure (SMILES) | test | system | conditions | how to read | tumour growth inhibition
Cl.O=C(c1cc(Cc2n[nH]c(=O)c3ccccc23)ccc1F)N1CC(CNC2CC2)C1 | – | BALB/c nude mouse, MX1 xenograft | oral, 25 mg/kg once daily, 23 days | – | 62.9%
C[C@@H]1COCCN1c1cc([C@]2(O)C[C@H]3CC[C@@H](C2)O3)c2cnn(-c3cc[nH]n3)c2n1 | – | Granta-519 xenograft, mouse | 30 mg/kg QD x3, day 20 | – | 83.8 ± 2.4%
